Assay results gathered from unrelated publications.
A part holds a random share of what one study measured. Changes are numbered by the printed parent chain.

Block 1
Target: ABI1, truncated, D143A, DHFR fusion (Arabidopsis thaliana)
Method: DHFR PCA, deep sequencing
Matrix: yeast
Setting: methotrexate growth selection, single substitutions
Added: (+)-ABA 0.11 µM
Baseline: wild-type fitted maximum
Direction: higher = stronger binding
Starting sequence: PYL1, truncated, DHFR fusion (Arabidopsis thaliana); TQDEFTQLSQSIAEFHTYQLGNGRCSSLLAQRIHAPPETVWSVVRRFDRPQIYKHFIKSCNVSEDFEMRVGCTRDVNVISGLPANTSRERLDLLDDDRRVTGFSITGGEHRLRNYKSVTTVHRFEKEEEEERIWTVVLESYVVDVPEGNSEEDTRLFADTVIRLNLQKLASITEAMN; partner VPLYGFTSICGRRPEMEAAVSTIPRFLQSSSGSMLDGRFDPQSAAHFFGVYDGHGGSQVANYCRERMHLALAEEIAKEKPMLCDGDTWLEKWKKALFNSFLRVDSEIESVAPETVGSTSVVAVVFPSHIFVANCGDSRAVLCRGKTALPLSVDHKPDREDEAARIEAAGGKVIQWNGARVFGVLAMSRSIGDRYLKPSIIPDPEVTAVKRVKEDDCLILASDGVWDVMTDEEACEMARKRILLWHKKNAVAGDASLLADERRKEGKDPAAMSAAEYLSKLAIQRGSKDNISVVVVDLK
Substitution	relative binding score
R69K	61.1%
G23V	0.71%
K54E	-3.92%
E130C	25.5%
T86S	31%
K116R	43.2%
D75K	22.9%
R74C	3.49%
P37W	-0.969%
Y53Q	-7.37%
T119H	3.02%
V70E	8.6%
Q10P	33.1%
T154M	6.09%
Q51R	7.92%

Block 2
Sequence: B1 (RNF135 RING domain)
Method: yeast two-hybrid
Matrix: yeast
Setting: mostly zero background
Baseline: not given
Direction: higher = stronger interaction
B1: RNF135 RING domain (UniProt Q8IUD6); chain PVWLAEDDLGCIICQGLLDWPATLPCGHSFCRHCLEALWGARDARRWACPTCRQGAAQQPHLR
target	lacZ reporter activity
UBE2J1 UBC core domain (UniProt Q9Y385)	0
UBE2B UBC core domain (UniProt P63146)	0
UBE2Z UBC core domain (UniProt Q9H832)	0
UBE2J2 UBC core domain (UniProt Q8N2K1)	0
UBE2G1 UBC core domain (UniProt P62253)	0
UBE2S UBC core domain (UniProt Q16763)	0
UBE2O UBC core domain (UniProt Q9C0C9)	0
UBE2C UBC core domain (UniProt O00762)	0
UBE2I UBC core domain (UniProt P63279)	0

Block 3
Target: CCNF, cyclin fold, Cln2 fusion (human)
Method: yeast growth competition, sequencing
Matrix: yeast
Setting: strong parent motif
Baseline: not given
Direction: higher = stronger binding
Starting sequence: CDC25A docking peptide (human); PPHRRRLLFACSP
Substitution	normalised enrichment score
R6Y	1.78
L7P	0.788
R5F	2.46
R4S	3.94
L8K	6.57
L8R	6.02
S12F	6.42
C11Q	8.12
H3Y	8.49
R6G	1
R6E	3.74
A10S	7.68
S12Y	7.87
P13G	7.51
P2E	6.56
C11I	7.75
R5L	2.48

Block 4
Target: Prothrombin, mature alpha-thrombin (F2, Homo sapiens, UniProt P00734)
Method: aptamer microarray, sandwich
Molecule type: DNA with 2'F-ANA
Matrix: in vitro
Tested at: 200 nM
Setting: whole 15-mer aptamer, many near background
Added: Cy3 exosite-II aptamer, 400 nM
Direction: higher = stronger binding
Sequence: GGTTGGTGTGGTTGG
Modification	mean fluorescence intensity
2'F-ANA at 1 2 3 4 9 10 12 14	65.7 a.u.
2'F-ANA at 2 8 9 10	160 a.u.
2'F-ANA at 3 5 8 9 11 12	213 a.u.
2'F-ANA at 2 3 6 7 8 9 11 14 15	304 a.u.
2'F-ANA at 2 3 5 7 9 10 13 14	49.5 a.u.
2'F-ANA at 2 4 7 8	460 a.u.
2'F-ANA at 1 5 7 8 10 11 13 15	50.7 a.u.
2'F-ANA at 1 2 4 5 10 11 12 13 14	80.4 a.u.
2'F-ANA at 1 4 5 7 8 10 14 15	47.8 a.u.
2'F-ANA at 6 7 8 11 12 14	233 a.u.
2'F-ANA at 1 2 10 13 15	50.6 a.u.
2'F-ANA at 1 2 3 4 5 6 7 10 11 12 15	59 a.u.
2'F-ANA at 5 7 8 9 13	59.2 a.u.
2'F-ANA at 1 3 7 8 10 12 15	123 a.u.
2'F-ANA at 3 4 6 10 11 13 15	199 a.u.
2'F-ANA at 1 4 5 6 10 12 14	46.8 a.u.
2'F-ANA at 1 2 4 6 8 9 10 11 12 14	87 a.u.
2'F-ANA at 2 3 4 6 13 14 15	220 a.u.
2'F-ANA at 1 4 6 7 8 9 11 12 13	157 a.u.
2'F-ANA at 3 5 7 13	143 a.u.
2'F-ANA at 2 3 4 5 6 7 9 10 11 14 15	52.3 a.u.
2'F-ANA at 5 6 7 8 11 15	99.5 a.u.
2'F-ANA at 1 2 3 5 6 7 8 9 10 12 13 15	55.2 a.u.

Block 5
Target: Interferon regulatory factor 7, full length, phosphomimetic (IRF7, Homo sapiens, UniProt Q92985, residues 1-503, S471D/S472D/S475D/S476D/S477D/S483D/S484D/S487D)
Method: protein-binding microarray
Molecule type: double-stranded DNA, one strand shown
Matrix: in vitro
Tested at: 2200 nM top
Setting: 60-bp whole probe
Added: salmon DNA 0.4 mg/ml
Baseline: random background probes
Direction: higher = stronger binding
All sequences stand within: GCCTAGCAC … GTCTTGATTCGCTTGACGCTGCTG
Sequence	fitted relative affinity
GACGATCTCAGACTGGAGACGTGCTAG	0.00102 z-score
TTAGATATCCGTATCGATTAGTGCTAG	0.56 z-score
GCCCCTTTCCTTTGCCTCTGGTGCTAG	2.54 z-score
GACGGCATCCTTATCCTGACGTGCTAG	0.453 z-score
TTACGTATCGGACTGGGTTAGTGCTAG	1.17 z-score
AAAGATTTATCAAATGTGGGAGTGCTA	-1.08 z-score
TTAGGAATCCTTCTCCTTTAGTGCTAG	0.393 z-score
TTGGGTCTCGGTATCGGTTAGTGCTAG	0.899 z-score
TTAGGATTGGGTATCGGTTAGTGCTAG	0.395 z-score
TCATCTCTACATGTGTTACTGTGCTAG	1.6 z-score
GACGATTTCAGTTCCGAGTCGTGCTAG	2.37 z-score
TTACGTCTCGGTATCGGTTAGTGCTAG	2.04 z-score
TCAGTTTGCCCTATTTAACTGTGCTAG	2.36 z-score
TCAGTTTTCAATTTTTGACTGTGCTAG	2.06 z-score
GACGGTTTCGTACTGCTGACGTGCTAG	4.3 z-score
TCAACTTTCTGAATGCTACTGTGCTAG	3.92 z-score
TCATGTTGCTGTTTGAGACTGTGCTAG	1.95 z-score
TTAGGTTTCGGTTTCGGTTCGTGCTAG	19.5 z-score
TTAGGACTGATTCTCCTTTAGTGCTAG	0.337 z-score

Repeated from above (block 4):
Modification	mean fluorescence intensity
2'F-ANA at 2 3 4 5 6 7 9 10 11 14 15	52.3 a.u.
2'F-ANA at 2 3 5 7 9 10 13 14	49.5 a.u.
2'F-ANA at 1 3 7 8 10 12 15	123 a.u.
2'F-ANA at 1 4 6 7 8 9 11 12 13	157 a.u.
2'F-ANA at 1 5 7 8 10 11 13 15	50.7 a.u.
2'F-ANA at 5 6 7 8 11 15	99.5 a.u.
2'F-ANA at 1 2 4 5 10 11 12 13 14	80.4 a.u.
2'F-ANA at 3 5 8 9 11 12	213 a.u.
2'F-ANA at 1 2 3 4 9 10 12 14	65.7 a.u.
2'F-ANA at 2 8 9 10	160 a.u.
2'F-ANA at 6 7 8 11 12 14	233 a.u.
2'F-ANA at 3 5 7 13	143 a.u.
2'F-ANA at 1 2 3 5 6 7 8 9 10 12 13 15	55.2 a.u.
